Experimental data collected from several papers.
A part holds a random share of what one study measured. “And” joins repeats or separate records; there may be more than shown.
Chain of UniProt P51955 (whole entry, looked up): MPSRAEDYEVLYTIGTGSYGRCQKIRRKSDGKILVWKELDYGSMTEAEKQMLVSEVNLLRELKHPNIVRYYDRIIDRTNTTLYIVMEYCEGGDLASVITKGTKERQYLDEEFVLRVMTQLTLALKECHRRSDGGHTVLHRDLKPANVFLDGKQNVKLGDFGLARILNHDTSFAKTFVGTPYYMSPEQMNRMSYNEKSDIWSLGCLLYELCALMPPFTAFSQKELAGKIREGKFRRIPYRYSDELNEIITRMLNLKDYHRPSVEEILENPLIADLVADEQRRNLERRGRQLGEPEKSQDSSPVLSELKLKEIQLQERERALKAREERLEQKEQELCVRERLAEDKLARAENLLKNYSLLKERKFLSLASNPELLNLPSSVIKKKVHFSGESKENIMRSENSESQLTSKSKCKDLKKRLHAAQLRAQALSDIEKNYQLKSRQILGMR
Chain of UniProt P54646 (whole entry, looked up): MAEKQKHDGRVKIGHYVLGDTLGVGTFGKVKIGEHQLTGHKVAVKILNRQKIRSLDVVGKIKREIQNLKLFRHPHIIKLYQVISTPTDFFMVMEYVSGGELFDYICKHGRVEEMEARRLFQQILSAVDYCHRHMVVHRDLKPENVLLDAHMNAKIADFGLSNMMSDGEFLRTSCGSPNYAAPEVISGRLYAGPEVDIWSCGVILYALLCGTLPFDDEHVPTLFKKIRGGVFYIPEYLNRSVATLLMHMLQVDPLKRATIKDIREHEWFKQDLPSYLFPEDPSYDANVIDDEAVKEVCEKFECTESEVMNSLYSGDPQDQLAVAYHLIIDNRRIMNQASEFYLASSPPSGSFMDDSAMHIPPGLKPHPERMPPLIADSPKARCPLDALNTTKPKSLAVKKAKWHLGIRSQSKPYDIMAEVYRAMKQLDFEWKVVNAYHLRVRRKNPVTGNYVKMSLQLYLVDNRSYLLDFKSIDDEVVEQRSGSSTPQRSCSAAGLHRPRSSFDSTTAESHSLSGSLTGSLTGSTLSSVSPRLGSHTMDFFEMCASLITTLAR
Chain of UniProt P29322 (whole entry, looked up): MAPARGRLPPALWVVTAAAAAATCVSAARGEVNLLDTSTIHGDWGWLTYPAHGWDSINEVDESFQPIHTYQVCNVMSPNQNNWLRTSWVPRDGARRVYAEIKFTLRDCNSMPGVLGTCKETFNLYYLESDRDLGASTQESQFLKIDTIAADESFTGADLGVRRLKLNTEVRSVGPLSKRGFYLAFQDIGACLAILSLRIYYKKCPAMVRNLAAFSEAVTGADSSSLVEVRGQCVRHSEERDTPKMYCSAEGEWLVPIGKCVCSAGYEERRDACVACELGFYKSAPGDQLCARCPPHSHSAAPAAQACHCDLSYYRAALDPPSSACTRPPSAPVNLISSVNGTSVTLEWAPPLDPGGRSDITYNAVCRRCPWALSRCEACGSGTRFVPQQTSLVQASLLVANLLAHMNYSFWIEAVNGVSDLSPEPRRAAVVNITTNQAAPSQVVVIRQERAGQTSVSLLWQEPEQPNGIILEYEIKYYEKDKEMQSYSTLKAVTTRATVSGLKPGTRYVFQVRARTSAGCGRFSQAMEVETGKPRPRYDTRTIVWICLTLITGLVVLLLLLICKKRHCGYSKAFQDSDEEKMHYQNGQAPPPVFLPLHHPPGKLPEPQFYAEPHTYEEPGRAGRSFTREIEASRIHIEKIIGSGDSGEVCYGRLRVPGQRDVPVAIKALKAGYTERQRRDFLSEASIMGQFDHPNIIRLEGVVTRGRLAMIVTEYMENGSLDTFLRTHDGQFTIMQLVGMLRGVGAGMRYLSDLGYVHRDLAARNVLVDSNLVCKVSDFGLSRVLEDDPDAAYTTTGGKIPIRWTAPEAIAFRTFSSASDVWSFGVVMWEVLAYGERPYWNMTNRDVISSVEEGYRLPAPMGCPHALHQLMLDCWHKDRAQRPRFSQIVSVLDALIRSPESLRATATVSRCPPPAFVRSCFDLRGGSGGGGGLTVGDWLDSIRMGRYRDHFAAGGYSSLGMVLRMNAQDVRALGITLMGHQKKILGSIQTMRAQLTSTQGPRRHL
Chain of UniProt P49137 (whole entry, looked up): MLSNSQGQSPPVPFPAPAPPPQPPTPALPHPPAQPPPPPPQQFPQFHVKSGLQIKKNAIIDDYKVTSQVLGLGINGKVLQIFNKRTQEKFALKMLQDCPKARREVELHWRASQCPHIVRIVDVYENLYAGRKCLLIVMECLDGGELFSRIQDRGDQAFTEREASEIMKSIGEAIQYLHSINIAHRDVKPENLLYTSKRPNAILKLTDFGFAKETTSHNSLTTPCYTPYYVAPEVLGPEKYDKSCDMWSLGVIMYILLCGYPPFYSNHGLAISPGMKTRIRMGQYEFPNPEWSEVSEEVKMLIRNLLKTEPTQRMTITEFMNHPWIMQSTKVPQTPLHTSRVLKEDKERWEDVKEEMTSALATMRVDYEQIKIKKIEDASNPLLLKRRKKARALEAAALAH
Chain of UniProt Q96GD4 (whole entry, looked up): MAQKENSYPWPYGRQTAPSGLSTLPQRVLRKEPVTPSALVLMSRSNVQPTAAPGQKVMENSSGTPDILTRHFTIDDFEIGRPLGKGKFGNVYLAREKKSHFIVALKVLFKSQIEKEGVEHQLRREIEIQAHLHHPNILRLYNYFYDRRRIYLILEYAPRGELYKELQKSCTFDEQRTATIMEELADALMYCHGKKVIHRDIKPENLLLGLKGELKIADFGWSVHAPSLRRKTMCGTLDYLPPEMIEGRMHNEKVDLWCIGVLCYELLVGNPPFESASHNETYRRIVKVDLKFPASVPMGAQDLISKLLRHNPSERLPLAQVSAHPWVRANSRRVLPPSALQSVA

Sample 1
SMILES: CNc1ncc2cc(-c3cc(OC)cc(OC)c3Cl)c(=O)n(CCc3ccc(NC(=O)C(C#N)=CC(C)(C)N4CCOCC4)cc3)c2n1
Observed: kinase activity
Quantity: inhibition
Aurora kinase B (AURKB, Homo sapiens, UniProt Q96GD4); 1 µM: 1%
MAP kinase-activated protein kinase 2 (MAPKAPK2, Homo sapiens, UniProt P49137); 0.1 µM: 4%
Tyrosine-protein kinase Fer (FER, Homo sapiens, UniProt P16591); 0.1 µM: 6%
Fibroblast growth factor receptor 3 (FGFR3, Homo sapiens, UniProt P22607); 1 µM: 97%
5'-AMP-activated protein kinase catalytic subunit alpha-2 (PRKAA2, Homo sapiens, UniProt P54646); 0.1 µM: -1%
Calcium/calmodulin-dependent protein kinase type II subunit beta (CAMK2B, Homo sapiens, UniProt Q13554); 1 µM: 4%
Ephrin type-A receptor 8 (EPHA8, Homo sapiens, UniProt P29322); 0.1 µM: 5%
Serine/threonine-protein kinase Nek2 (NEK2, Homo sapiens, UniProt P51955); 0.1 µM: -8%
Macrophage-stimulating protein receptor (MST1R, Homo sapiens, UniProt Q04912); 1 µM: 2%
Inhibitor of nuclear factor kappa-B kinase subunit epsilon (IKBKE, Homo sapiens, UniProt Q14164); 1 µM: 1%
Serine/threonine-protein kinase Sgk1 (SGK1, Homo sapiens, UniProt O00141); 0.1 µM: -2%
MAP/microtubule affinity-regulating kinase 3 (MARK3, Homo sapiens, UniProt P27448); 0.1 µM: 12%
Serine/threonine-protein kinase LATS2 (LATS2, Homo sapiens, UniProt Q9NRM7); 0.1 µM: 0%
Tyrosine-protein kinase HCK (HCK, Homo sapiens, UniProt P08631); 1 µM: 5%

Sample 2
Compound: Cc1ncsc1-c1ccc(C(CO)NC(=O)C2CC(O)CN2C(=O)C(C(C)C)n2cc(-c3ccc(COc4c(-c5c(C)c(F)cc6[nH]ncc56)c(C5CC5)cc5c(N6CC7CC6CN7)nc(OC6CCOCC6)nc45)cc3)nn2)cc1 (stereo not shown)
Observed: cell growth or viability
Method: ATP luminescence
Time: 6 days
Quantity: viability
PSN1; 10 µM: 37.8% and 37.9% and 42.4% and 38.4%
HCT-116; 10 nM: 92.6% and 93.5% and 90% and 86.8%
SK-CO-1; 1 µM: 10.6% and 8.14% and 11.8% and 10.4%
HT-29; 30 nM: 87.4% and 90.3% and 93.1% and 118%
HPAC; 0.3 µM: 12.5% and 5.67% and 4.1% and 3.74%
T24; 10 nM: 101% and 99.6% and 92.5% and 98.8%
HCT-116; 1 nM: 96.6% and 122% and 91% and 102%

Sample 3
Compound: C[C@@H]1CN(c2ccc(-c3cc(C(=O)NCCOCCOCCOCCOCCNC(=O)/C=C/c4[nH]cc(C(=O)N[C@@H](CC(N)=O)c5ccc(F)c(Cl)c5)c4-c4ccc(Cl)cc4F)ccc3F)cc2NC(=O)c2c[nH]c(=O)cc2C(F)(F)F)C[C@H](C)N1C
Observed: thermal unfolding
Method: differential scanning fluorimetry
Tested at: 5.5 µM
Direction: higher = more unfolded
Quantity: SYPRO Orange fluorescence
WDR5: WD repeat-containing protein 5 (WDR5, Homo sapiens, UniProt P61964)
DCAF1: DDB1- and CUL4-associated factor 1 (DCAF1, Homo sapiens, UniProt Q9Y4B6)
Chain of UniProt Q9Y4B6 (whole entry, looked up): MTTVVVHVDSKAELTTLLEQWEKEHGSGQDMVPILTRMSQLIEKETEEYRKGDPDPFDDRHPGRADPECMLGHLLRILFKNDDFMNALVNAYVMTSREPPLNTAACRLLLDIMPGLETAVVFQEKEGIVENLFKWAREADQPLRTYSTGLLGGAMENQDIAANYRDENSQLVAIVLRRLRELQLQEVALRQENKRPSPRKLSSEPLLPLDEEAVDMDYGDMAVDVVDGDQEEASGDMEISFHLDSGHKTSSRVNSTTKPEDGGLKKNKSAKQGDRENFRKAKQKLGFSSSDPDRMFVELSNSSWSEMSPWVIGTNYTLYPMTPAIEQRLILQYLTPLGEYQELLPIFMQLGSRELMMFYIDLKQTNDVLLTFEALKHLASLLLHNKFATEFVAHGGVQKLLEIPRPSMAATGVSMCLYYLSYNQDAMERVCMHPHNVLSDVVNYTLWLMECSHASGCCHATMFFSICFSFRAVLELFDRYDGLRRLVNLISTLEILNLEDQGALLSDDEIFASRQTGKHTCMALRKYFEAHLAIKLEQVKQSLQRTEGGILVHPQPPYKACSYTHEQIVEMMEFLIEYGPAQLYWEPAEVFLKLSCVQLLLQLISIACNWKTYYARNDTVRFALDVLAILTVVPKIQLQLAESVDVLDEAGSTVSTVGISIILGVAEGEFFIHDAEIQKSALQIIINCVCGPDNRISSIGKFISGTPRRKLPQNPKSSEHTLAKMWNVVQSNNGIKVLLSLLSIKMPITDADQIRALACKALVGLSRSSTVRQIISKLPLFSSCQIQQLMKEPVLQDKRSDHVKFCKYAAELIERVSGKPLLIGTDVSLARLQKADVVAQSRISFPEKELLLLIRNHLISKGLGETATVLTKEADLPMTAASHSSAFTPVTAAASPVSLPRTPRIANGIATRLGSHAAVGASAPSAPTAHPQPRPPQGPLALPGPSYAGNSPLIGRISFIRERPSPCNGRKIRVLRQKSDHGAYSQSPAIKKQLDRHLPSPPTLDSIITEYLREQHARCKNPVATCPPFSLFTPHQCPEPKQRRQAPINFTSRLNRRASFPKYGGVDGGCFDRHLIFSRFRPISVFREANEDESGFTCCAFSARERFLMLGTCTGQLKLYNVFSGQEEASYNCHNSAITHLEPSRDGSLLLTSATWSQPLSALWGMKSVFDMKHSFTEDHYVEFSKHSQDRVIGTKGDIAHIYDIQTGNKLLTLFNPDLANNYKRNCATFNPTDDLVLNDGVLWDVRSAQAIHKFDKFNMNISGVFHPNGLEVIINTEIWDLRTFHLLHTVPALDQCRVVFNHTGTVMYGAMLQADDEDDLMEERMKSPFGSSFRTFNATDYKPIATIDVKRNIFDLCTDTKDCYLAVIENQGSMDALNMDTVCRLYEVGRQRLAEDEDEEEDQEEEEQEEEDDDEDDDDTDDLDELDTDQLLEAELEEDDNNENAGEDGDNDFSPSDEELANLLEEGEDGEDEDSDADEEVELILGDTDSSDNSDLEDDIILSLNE
WDR5; 94.81 °C: 45400 a.u.
WDR5; 68.81 °C: 15000 a.u.
WDR5; 45.6 °C: 15400 a.u.
WDR5; 33.6 °C: 13100 a.u.
DCAF1; 29 °C: 9300 a.u.
DCAF1; 61.41 °C: 47400 a.u.
DCAF1; 67.61 °C: 58400 a.u.
WDR5; 88.81 °C: 52400 a.u.

Sample 4
Compound: NC/C(=C\F)COc1ccc(C(F)(F)F)c(Cn2c(=S)[nH]c(=O)c3[nH]cnc32)c1
Target: Myeloperoxidase (MPO, Homo sapiens, UniProt P05164)
Chain of UniProt P05164 (whole entry, looked up): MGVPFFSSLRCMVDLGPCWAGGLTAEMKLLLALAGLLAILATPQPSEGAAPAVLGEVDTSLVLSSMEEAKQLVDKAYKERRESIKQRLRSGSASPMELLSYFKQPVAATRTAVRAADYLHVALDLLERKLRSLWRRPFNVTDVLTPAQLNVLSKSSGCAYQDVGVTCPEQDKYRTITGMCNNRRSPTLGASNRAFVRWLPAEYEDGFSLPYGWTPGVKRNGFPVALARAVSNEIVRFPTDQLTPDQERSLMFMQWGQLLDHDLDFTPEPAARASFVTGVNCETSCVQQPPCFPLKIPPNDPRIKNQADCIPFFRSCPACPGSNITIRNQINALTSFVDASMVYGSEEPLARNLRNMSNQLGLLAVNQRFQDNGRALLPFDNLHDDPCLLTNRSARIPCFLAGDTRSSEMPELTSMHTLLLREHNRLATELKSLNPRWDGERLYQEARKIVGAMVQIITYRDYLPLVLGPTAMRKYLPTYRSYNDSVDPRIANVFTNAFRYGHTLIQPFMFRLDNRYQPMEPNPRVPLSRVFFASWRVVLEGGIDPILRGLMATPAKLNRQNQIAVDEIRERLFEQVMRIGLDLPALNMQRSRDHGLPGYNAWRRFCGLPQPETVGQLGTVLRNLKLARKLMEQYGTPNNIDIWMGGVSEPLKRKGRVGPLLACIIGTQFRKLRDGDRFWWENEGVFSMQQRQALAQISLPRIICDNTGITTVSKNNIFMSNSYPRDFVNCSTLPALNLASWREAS
Observed: enzyme activity
Quantity: inhibition
1.111 µM: 94.5% and 97.3%
0.0046 µM: 13.4% and -2.25%
inhibitor, fluorescence; 30 µM: 99.7%
30 µM: 99.5%
10 µM: 99.5% and 99.4%
